Values quoted from earlier work that unrelated publications cite.
Numbers after ± are the reported error.
Chain of UniProt P04191 (whole entry, looked up): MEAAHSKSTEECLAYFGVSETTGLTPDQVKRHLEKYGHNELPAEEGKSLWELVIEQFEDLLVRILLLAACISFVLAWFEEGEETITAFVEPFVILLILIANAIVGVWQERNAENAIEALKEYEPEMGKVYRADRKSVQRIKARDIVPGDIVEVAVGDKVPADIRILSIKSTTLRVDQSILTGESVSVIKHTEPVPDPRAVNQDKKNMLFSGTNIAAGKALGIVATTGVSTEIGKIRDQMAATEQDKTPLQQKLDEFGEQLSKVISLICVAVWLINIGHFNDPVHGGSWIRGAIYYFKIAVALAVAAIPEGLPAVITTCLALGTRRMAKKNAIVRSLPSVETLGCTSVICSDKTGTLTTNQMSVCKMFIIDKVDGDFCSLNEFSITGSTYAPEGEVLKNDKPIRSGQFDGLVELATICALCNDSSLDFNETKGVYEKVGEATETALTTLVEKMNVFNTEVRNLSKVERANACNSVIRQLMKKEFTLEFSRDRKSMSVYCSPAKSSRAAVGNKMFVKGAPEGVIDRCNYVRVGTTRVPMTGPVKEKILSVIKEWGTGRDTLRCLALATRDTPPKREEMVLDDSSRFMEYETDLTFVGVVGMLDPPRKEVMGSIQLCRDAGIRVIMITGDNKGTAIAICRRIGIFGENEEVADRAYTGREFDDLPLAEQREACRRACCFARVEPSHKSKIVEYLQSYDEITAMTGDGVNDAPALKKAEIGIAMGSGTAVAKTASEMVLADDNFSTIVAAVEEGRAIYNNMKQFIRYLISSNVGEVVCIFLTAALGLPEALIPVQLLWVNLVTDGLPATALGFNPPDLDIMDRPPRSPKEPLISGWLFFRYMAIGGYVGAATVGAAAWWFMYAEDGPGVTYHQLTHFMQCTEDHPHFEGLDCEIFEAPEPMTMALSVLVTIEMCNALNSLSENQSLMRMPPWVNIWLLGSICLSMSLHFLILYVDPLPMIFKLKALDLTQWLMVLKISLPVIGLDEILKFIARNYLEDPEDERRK

Substance	target or system	test	test system	setting	scale	measurement	result
VTATNAFNCRKERGFCRFGGCPFPLIHIGKCGPA	Staphylococcus aureus	–	peptide	–	–	MIC	> 128 µM
bevacizumab	–	–	patients with recurrent glioblastoma	dose not given, CheckMate-143 trial	–	median overall survival	10 months
abciximab	–	–	human, percutaneous coronary intervention patients	dose not given	–	patients with anti-drug antibodies	4.8%
capreomycin	Mycobacterium tuberculosis	–	H37Ra	literature value	–	MIC	8 µg/mL
enfortumab vedotin	–	–	rat	–	–	half-life	24 to 32 h
capreomycin	Mycobacterium tuberculosis	–	–	several weeks	–	99% growth inhibitory concentration	75 µM
LSPAVIASLVG-NH2 (C-amide)	ion channel complex, PPK1, PPK26	agonist	peptide	–	–	EC50	113 nM
melittin	Pseudomonas aeruginosa	–	ATCC 27853	literature value	–	MIC	12.5 µM
phospholamban	Sarcoplasmic/endoplasmic reticulum calcium ATPase 1 (ATP2A1, Oryctolagus cuniculus, UniProt P04191)	enzyme activity	–	–	–	Vmax	6.1 ± 0.1 µmol/min/mg
TFELQGVVPRGVNL (V29F)	Prothrombin (F2, Bos taurus, UniProt P00735)	substrate, HPLC	peptide	–	–	kcat	6.2 ± 0.4 s⁻¹
omiganan	Salmonella typhimurium	–	SL1344	–	–	MIC	25 µM
YRQSMNNFQGLRSFGCRFGTCTVQKLAHQIYQFTDKDKDNVAPRSKISPQGY (biotin-labelled)	–	–	rat, plasma	–	–	half-life	0.25 h
human CCL11	CCR3 D18A mutant	–	–	–	–	IC50	8.07 nM
AEQNPIYWARYADWLFTTPLLLLDLALLVDADEGT (pHLIP (Halobacterium salinarum))	–	NMR, refers to: Asp14	peptide, lipid membrane	numbering of the source	–	pKa	5.8
cathelicidin-BF	Staphylococcus aureus	–	–	–	–	MIC	30 µg/mL
buforin II	Pseudomonas aeruginosa	–	ATCC 27853	literature value	–	MIC	100 µM
neurotensin	NTS1 deletion of residues 45-60	–	–	concentration not given	baseline: wild type	binding affinity decrease	3000 fold
DPDPE	human opioid receptor MOP	binding	–	–	–	Ki	> 10000 nM
epigallocatechin gallate	DYRK1A	enzyme activity	–	–	–	IC50	~300 nM
GTVLCCETCFLLSCCKIGCTCTRVV	Escherichia coli	–	peptide	–	–	MIC	64 µM
VVIA	PC-12, differentiated	MTT	peptide	10-fold excess over Aβ42, together with: Aβ42 5 µM	baseline: untreated	viability	89 ± 5%
darobactin A	Bacteroides fragilis	–	ATCC 25285	concentration not given	–	growth inhibition	no effect
GSGCCGQGSCCGRWSGMKNIRVLWCGGCC	Pseudomonas aeruginosa	–	peptide	–	–	MIC	32 µM
evodiamine	butyrylcholinesterase	inhibitor	–	–	–	IC50	4620 nM
FFFHIIHHIFHLIRRLLHRIRRRRRRHR	Pseudomonas aeruginosa	–	peptide	–	–	MIC	32 µM
pegcetacoplan	bacteria	–	–	concentration not given, without S9 activation	–	Ames reverse mutation	negative
YCAQTGCTVNWGRCWGCIGNNSGANYATGGKSGV	Staphylococcus aureus	–	peptide	–	–	MIC	> 128 µM
cyclopropyl methoxycarbonyl metomidate	Xenopus laevis	loss of righting reflex	–	tadpoles	–	EC50	2600 nM

A few entries again:
Substance	target or system	test	test system	setting	scale	measurement	result
GTVLCCETCFLLSCCKIGCTCTRVV	Escherichia coli	–	peptide	–	–	MIC	64 µM
VTATNAFNCRKERGFCRFGGCPFPLIHIGKCGPA	Staphylococcus aureus	–	peptide	–	–	MIC	> 128 µM
